{"data": "Published values of several laboratories", "note": "Parts stem from different laboratories: compare values within a part only. Changes are numbered by the printed parent chain.", "UniProt Q93WC4, sequence (whole entry, looked up)": "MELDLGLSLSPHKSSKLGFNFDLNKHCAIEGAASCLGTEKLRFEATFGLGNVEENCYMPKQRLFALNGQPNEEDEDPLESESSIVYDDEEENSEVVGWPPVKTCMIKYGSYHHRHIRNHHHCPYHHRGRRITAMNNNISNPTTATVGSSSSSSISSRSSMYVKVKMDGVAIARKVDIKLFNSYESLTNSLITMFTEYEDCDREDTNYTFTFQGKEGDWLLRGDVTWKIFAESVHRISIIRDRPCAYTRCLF", "UniProt Q9FGV1, sequence (whole entry, looked up)": "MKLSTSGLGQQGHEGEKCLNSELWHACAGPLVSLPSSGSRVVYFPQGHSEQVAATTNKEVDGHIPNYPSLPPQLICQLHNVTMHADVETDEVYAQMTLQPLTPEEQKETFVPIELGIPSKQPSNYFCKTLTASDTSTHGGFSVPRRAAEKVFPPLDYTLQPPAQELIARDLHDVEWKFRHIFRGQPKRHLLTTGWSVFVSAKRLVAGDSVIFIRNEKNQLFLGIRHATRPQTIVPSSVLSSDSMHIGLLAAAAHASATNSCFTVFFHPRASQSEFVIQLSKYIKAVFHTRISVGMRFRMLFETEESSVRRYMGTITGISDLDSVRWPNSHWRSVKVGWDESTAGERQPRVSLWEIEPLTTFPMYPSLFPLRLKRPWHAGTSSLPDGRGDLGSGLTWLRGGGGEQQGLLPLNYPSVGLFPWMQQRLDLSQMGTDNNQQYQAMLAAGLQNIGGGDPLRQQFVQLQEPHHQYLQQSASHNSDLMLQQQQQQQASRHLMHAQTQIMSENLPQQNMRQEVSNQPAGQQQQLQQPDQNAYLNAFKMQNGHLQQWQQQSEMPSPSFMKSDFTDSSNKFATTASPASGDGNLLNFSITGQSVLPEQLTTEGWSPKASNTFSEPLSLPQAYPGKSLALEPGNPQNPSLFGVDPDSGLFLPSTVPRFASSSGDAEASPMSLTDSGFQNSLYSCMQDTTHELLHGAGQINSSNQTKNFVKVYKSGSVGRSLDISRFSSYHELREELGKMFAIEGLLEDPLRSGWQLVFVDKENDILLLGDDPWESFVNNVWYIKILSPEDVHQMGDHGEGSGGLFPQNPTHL", "UniProt Q9C5W9, sequence (whole entry, looked up)": "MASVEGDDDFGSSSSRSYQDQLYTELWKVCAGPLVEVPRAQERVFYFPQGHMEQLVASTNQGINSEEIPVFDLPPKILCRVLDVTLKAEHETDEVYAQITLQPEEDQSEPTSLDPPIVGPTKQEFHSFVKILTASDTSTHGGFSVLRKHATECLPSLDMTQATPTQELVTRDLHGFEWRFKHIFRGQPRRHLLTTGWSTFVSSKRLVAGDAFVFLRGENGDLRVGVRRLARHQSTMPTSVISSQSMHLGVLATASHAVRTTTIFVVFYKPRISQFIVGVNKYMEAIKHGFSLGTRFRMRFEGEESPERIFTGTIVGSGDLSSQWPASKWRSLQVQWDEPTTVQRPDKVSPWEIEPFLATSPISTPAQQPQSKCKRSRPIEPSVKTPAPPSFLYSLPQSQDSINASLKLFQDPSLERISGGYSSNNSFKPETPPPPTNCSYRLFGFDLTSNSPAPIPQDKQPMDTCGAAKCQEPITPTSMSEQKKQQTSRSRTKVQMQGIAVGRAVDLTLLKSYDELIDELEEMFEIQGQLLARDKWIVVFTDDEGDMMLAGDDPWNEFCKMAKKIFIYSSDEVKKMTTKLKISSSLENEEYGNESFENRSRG", "UniProt Q9ZTX8, sequence (whole entry, looked up)": "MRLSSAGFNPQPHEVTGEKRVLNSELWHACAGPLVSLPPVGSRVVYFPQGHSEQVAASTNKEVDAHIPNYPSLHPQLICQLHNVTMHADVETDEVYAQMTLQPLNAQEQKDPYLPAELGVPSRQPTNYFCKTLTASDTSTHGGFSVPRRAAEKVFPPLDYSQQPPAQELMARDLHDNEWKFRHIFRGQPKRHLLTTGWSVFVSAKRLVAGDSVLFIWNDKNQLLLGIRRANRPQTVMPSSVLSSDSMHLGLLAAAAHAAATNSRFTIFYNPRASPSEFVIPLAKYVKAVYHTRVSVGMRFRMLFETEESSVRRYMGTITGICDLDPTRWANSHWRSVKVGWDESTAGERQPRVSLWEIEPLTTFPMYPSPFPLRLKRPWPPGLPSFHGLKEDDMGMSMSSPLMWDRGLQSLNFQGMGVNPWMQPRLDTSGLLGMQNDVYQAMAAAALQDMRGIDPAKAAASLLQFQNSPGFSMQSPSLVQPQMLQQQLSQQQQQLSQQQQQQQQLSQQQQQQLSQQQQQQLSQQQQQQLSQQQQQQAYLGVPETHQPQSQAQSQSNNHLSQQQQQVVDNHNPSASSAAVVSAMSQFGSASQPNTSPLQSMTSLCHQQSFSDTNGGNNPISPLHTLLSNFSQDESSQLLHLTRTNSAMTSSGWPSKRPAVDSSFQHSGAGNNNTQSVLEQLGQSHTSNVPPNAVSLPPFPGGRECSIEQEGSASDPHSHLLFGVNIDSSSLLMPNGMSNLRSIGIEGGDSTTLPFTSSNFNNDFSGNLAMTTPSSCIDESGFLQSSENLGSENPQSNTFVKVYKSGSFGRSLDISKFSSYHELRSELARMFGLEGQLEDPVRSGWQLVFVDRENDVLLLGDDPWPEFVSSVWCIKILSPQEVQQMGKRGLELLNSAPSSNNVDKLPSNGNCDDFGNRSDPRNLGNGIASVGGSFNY", "UniProt Q8H174, sequence (whole entry, looked up)": "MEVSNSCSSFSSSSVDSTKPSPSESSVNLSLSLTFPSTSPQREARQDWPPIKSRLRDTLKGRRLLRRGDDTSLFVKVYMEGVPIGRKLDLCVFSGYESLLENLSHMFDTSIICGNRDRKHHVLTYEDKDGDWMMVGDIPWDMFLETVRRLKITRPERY", "UniProt Q9FKM7, sequence (whole entry, looked up)": "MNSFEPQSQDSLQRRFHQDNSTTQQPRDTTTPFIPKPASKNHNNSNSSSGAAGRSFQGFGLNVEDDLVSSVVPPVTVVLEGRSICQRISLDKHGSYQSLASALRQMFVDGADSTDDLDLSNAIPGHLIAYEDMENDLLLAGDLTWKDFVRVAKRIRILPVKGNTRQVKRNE", "UniProt O24410, sequence (whole entry, looked up)": "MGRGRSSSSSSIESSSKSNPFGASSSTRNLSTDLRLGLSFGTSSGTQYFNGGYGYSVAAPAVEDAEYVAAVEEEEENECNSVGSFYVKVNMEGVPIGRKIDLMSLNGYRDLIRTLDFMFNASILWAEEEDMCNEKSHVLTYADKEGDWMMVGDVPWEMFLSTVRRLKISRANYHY", "UniProt Q9ZTX9, sequence (whole entry, looked up)": "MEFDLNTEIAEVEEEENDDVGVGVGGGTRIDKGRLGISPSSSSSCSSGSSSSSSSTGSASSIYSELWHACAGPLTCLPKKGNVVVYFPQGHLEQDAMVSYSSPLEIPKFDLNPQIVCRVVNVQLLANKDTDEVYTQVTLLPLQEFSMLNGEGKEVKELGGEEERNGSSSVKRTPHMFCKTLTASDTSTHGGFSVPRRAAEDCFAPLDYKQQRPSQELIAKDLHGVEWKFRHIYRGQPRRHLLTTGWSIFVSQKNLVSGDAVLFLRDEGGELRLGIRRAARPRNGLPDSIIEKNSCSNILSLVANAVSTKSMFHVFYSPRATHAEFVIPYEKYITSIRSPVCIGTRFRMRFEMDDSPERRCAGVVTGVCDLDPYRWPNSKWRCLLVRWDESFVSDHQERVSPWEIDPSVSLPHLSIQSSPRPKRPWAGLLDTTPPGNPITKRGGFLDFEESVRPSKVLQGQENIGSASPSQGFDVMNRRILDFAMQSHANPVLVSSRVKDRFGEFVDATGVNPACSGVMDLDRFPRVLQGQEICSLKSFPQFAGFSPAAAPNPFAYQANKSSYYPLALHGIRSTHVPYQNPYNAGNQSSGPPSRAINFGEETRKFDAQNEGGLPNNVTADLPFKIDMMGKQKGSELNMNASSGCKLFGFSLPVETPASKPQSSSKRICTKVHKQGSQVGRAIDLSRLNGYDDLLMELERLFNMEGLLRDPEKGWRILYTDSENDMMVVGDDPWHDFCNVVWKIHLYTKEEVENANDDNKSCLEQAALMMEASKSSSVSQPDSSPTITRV"}
{"data": "Sample 1", "target": "CCNA1, cyclin fold, Cln2 fusion (human)", "method": "yeast growth competition, sequencing", "sample": "yeast", "setting": "weak parent motif", "reference": "not given", "direction": "higher = stronger binding", "starting sequence": "HASPIN docking peptide (human); ASLRSVLFGLMNS; partner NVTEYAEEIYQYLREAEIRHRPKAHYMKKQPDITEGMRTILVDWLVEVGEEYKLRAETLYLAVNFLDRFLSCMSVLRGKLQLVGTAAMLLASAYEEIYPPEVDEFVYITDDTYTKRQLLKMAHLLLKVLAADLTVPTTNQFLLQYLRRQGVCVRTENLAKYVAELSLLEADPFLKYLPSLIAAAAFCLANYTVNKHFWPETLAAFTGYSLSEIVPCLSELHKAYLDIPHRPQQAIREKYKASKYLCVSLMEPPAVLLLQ"}
{"Variant": "S13A", "normalised enrichment score": 0.275}
{"Variant": "N12A", "normalised enrichment score": -0.178}
{"Variant": "S2A", "normalised enrichment score": -0.766}
{"Variant": "S5A", "normalised enrichment score": -0.451}
{"Variant": "G9A", "normalised enrichment score": -0.118}
{"Variant": "R4A", "normalised enrichment score": -0.944}
{"data": "Sample 2", "target": "CREB5, bZIP domain (human)", "method": "DHFR protein complementation", "sample": "yeast", "setting": "single substitutions, most at no-binding floor", "reference": "wild-type JUN-FOS pair", "direction": "higher = stronger binding", "starting sequence": "JUN, bZIP domain (human); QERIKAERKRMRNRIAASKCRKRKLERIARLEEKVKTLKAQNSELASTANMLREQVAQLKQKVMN; partner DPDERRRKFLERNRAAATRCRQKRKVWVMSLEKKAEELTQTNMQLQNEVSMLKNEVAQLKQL"}
{"Variant": "K36E", "binding fitness [natural log]": -0.202}
{"Variant": "A49R", "binding fitness [natural log]": -0.167}
{"Variant": "R30M", "binding fitness [natural log]": -0.2}
{"Variant": "E54S", "binding fitness [natural log]": -0.535}
{"Variant": "S47I", "binding fitness [natural log]": -0.349}
{"Variant": "E33Q", "binding fitness [natural log]": -0.509}
{"Variant": "T48N", "binding fitness [natural log]": -0.667}
{"Variant": "S43T", "binding fitness [natural log]": -0.162}
{"Variant": "I28M", "binding fitness [natural log]": -0.314}
{"Variant": "E44H", "binding fitness [natural log]": -0.446}
{"Variant": "L52C", "binding fitness [natural log]": -1.39}
{"Variant": "A57I", "binding fitness [natural log]": -0.454}
{"Variant": "Q55L", "binding fitness [natural log]": -0.517}
{"Variant": "A57S", "binding fitness [natural log]": -0.366}
{"Variant": "Q41P", "binding fitness [natural log]": -1.39}
{"Variant": "K36S", "binding fitness [natural log]": -0.25}
{"Variant": "T37I", "binding fitness [natural log]": -0.308}
{"Variant": "L59K", "binding fitness [natural log]": -1.44}
{"Variant": "V56K", "binding fitness [natural log]": -0.791}
{"Variant": "E54M", "binding fitness [natural log]": -0.548}
{"Variant": "S47T", "binding fitness [natural log]": -0.278}
{"Variant": "E32F", "binding fitness [natural log]": -0.804}
{"data": "Sample 3", "Sequence": "B1 (IAA15)", "method": "two-hybrid", "direction": "higher = firmer interaction", "B1": "IAA15 (Arabidopsis thaliana, UniProt Q9C966); chain MSPEEYVRVWPDSGDLGGTELTLALPGTPTNASEGPKKFGNKRRFLETVDLKLGEAHENNYISSMVTNDQLVGWPPVATARKTVRRKYVKVALDGAAYLRKVDLGMYDCYGQLFTALENMFQGIITICRVTELERKGEFVATYEDKDGDLMLVGDVPWMMFVESCKRMRLMKTGDAIGL"}
{"partner": "IAA20 (Arabidopsis thaliana, UniProt O24410)", "setting": "weak activation fusion", "reference": "out of 4 tests", "positive tests": 2}
{"partner": "IAA33 (Arabidopsis thaliana, UniProt Q9FKM7)", "reference": "out of 4 tests", "positive tests": 3}
{"partner": "ARF4 660-788 (Arabidopsis thaliana, UniProt Q9ZTX9)", "reference": "out of 4 tests", "positive tests": 1}
{"partner": "IAA30 (Arabidopsis thaliana, UniProt Q9M1R4)", "setting": "weak activation fusion", "reference": "out of 4 tests", "positive tests": 3}
{"partner": "IAA29 (Arabidopsis thaliana, UniProt Q93WC4)", "reference": "out of 4 tests", "positive tests": 1}
{"partner": "ARF8 699-811 (Arabidopsis thaliana, UniProt Q9FGV1)", "reference": "out of 2 tests", "positive tests": 2}
{"partner": "IAA31 (Arabidopsis thaliana, UniProt Q8H174)", "reference": "out of 2 tests", "positive tests": 0}
{"partner": "ARF18 482-602 (Arabidopsis thaliana, UniProt Q9C5W9)", "reference": "out of 2 tests", "positive tests": 0}
{"partner": "ARF6 790-935 (Arabidopsis thaliana, UniProt Q9ZTX8)", "reference": "out of 4 tests", "positive tests": 4}
{"data": "Sample 4", "target": "RNA binding protein fox-1 homolog 2, RRM domain, GST-SBP tag (RBFOX2, Homo sapiens, UniProt O43251-10, residues 100-194)", "method": "RNA Bind-n-Seq", "form": "RNA", "sample": "in vitro", "tested at": "365 nM", "setting": "natural RNA segment, single round, ends assumed", "reference": "no-protein control", "direction": "higher = stronger binding", "constant ends, left off below": "GGGAGUUCUACAGUCCGACGAUC … UGGAAUUCUCGGGUGCCAA", "Target sequence (chain)": "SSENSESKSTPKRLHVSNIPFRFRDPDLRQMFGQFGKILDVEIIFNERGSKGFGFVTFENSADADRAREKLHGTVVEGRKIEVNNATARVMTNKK"}
{"Strand": "GGAUUCUGGCUUCAAGGCUGGACACCUGAACUAUUUACAAAGACAGUUUUAAGAAUAUGAAAUUAAGUUCAGGGCCCCGGAAGCUUCUUGAGCGACAUAGCCAGUCCGCC", "RBNS enrichment (R)": 0.258}
{"Strand": "CCCUGACAAACAACAGGUGGCAUCUGGUGUGCUGUUCUUGAGUUUUCGUUUAGGAUUAGUUGAGUUCCAGCUGGGUUUUGGGAGAAAGGAGAUGCUACCAAGUCUUGGAU", "RBNS enrichment (R)": 0.767}
{"Strand": "CAGUUAAGUUCCACCCAGUAGUCAGUCCCCUUUGUAGUUAGUGGGAUUAUUUGAUAAUUGGUUAGAUCAUACUUGUAAAUUUUAAUGCUUUGUGUAAUUGGUUUGAAAAA", "RBNS enrichment (R)": 0.417}
{"Strand": "CUUCAGGGAACAUGCCUGCAUUACAUGAAAUUCCAUGCGCCCAGCUGGUUAUUUCUUGUCUUCCAUCUUAGAAGAAUUGUGUUUCUUCAGGAUACUCUUGUACCUGUGGU", "RBNS enrichment (R)": 0.301}
{"Strand": "UGUGUUCUGUGCUUUACACUGACAGAACCUGGGUUUUCAGUUGGCAAUCAUGGAAAGCAUGUUGUGUGGCUCUGAUCCUAGUAUUUGGGAAACAGAGACAGAAAGGUUAG", "RBNS enrichment (R)": 1.69}
{"Strand": "UAAGACACUGUGACAGUUGUCUGUCGGUCCACUGUGUUUAGUUGCAAAGAUUUCACCAUGUGUGUUGUUUUUGUUACUGUCUUAAAGGGUGCACAUUUGUGAUCAGCAUU", "RBNS enrichment (R)": 0.326}
{"Strand": "CUCUACAAAGACAUUCCCUGGCAGUAAGAAAUGCUGAAAUGCUUUUUGUUGGUUUUGAAACACUCCCCCAGUUCUAGCUGUACCCCAGAAAAACAAAUACUUUCUUGAUC", "RBNS enrichment (R)": 0.414}
{"Strand": "CUUUCUAUAAAACUUGAAAAUAGCAAAAACCCUCAACUGUUGUAAAUCAUGCAAUUAAAGUUGAUUACUUAUAAAUAUGAACUUUGGAUCACUGUAUAGACUGUUAAAUU", "RBNS enrichment (R)": 0.449}
{"Strand": "AGACUUGGGGCCAUGUGCCUCCCCACACAUGGGCAAGGACAGGUGGAAUGUCGGGACCACACUGUGCGGCUUCUCGGCACAAAGCGGAGGGAGGCUGUGGUCGCUGCCGG", "RBNS enrichment (R)": 0.574}
{"Strand": "UAACACAGCUAUUAAGUGCUACCUGCCUCUCAGGCACUCUCCUCGCCCAGUUUCUGAGGUCAGACGAGUGUCUGCGAUGUCUUCCCGCACUCUAUUCCCCCAGCCUCUUU", "RBNS enrichment (R)": 0.276}
{"Strand": "UUCUUGCAUUUUGCUCUCCAUUCAGCAUGUGUGUGGGUGUGGAUGUUUAUAAACAAGACUAAGUCUGACUUCAUAAGGGCUUUCUAAAACCAUUUCUGUCCAAGAGAAAA", "RBNS enrichment (R)": 24.2}
{"Strand": "GUUGUCAAACUUGCAAGCAUUUAUUUGUCUUUAUGACUGUCAUGGGGACUGAGGUUCUUCAGAGAAAGAGUGUGAGCUGAUGACACAGUGGUUUUACACCCACCCCCUGG", "RBNS enrichment (R)": 0.76}
{"data": "Sample 5", "target": "Sal-like protein 4, full length isoform A (SALL4, Homo sapiens, UniProt Q9UJQ4, residues 1-1053)", "method": "universal PBM", "form": "double-stranded DNA, one strand shown", "sample": "in vitro", "tested at": "600 nM", "setting": "8-mer, flanks averaged, mean of replicates", "direction": "higher = stronger binding", "UniProt Q9UJQ4, sequence (whole entry, looked up)": "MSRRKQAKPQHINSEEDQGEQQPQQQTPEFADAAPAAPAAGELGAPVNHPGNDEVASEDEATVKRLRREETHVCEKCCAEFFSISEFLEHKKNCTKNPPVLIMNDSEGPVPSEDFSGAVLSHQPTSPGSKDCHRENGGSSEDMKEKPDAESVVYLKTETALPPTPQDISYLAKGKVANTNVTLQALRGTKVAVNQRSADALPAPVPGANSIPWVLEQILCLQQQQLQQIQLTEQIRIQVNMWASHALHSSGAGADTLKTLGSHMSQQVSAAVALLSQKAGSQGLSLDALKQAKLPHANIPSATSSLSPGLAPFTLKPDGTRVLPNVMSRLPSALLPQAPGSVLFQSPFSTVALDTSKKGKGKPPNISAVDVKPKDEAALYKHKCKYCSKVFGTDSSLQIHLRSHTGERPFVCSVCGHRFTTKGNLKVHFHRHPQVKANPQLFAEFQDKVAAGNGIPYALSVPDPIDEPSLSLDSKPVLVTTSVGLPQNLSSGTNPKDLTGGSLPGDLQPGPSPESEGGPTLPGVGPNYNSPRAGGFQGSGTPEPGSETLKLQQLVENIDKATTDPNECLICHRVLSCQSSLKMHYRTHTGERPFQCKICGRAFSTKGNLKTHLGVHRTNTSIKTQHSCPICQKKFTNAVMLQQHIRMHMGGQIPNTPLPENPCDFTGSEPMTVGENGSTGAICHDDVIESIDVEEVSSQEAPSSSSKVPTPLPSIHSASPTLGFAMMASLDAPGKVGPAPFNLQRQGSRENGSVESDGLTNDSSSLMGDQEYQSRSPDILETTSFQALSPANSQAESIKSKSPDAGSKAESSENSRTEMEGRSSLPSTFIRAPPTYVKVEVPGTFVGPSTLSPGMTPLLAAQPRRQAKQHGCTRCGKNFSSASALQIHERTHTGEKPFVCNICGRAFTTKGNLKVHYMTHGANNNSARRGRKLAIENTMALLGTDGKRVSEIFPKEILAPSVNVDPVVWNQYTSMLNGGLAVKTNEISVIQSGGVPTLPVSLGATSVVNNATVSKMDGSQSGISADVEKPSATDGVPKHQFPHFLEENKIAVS"}
{"Strand": "TATTCCAA", "E-score": 0.283}
{"Strand": "AAGGTAAA", "E-score": 0.237}
{"Strand": "GAGAAACC", "E-score": -0.2}
{"Strand": "CTTTGCGC", "E-score": -0.0312}
{"Strand": "ATGAGAAG", "E-score": 0.118}
{"Strand": "CTAAGGGC", "E-score": -0.262}
{"Strand": "CATTCCTC", "E-score": 0.0246}
{"Strand": "GCTCTTGA", "E-score": -0.0808}
{"Strand": "ATTCAAAA", "E-score": 0.227}
{"Strand": "CTAGCGAA", "E-score": -0.136}
{"Strand": "TCGCCGCA", "E-score": -0.136}
{"Strand": "GATCGTAA", "E-score": 0.0821}
{"Strand": "GAAGCTGC", "E-score": -0.232}
{"Strand": "GTTGCCAA", "E-score": -0.0373}
{"Strand": "ACTAGAGG", "E-score": -0.107}
{"Strand": "CCCTATTC", "E-score": -0.0475}
{"Strand": "CCTCCTAA", "E-score": 0.0197}
{"Strand": "ACTGCTCT", "E-score": -0.00257}
{"Strand": "CCTCGCCC", "E-score": -0.212}
